{"data": "Measured values pooled from the literature", "note": "Each numbered part is a random draw from the data of one study; scales do not carry over between parts."}
{"data": "Block 1", "target": "Interferon regulatory factor 7, full length, phosphomimetic (IRF7, Homo sapiens, UniProt Q92985, residues 1-503, S101K/S471D/S472D/S475D/S476D/S477D/S483D/S484D/S487D)", "method": "protein-binding microarray", "molecule type": "double-stranded DNA, one strand shown", "sample": "in vitro", "tested at": "250 nM", "setting": "60-bp whole probe", "added": "salmon DNA 0.4 mg/ml", "baseline": "random background probes", "direction": "higher = stronger binding", "all sequences stand within": "GCCTAGCAC … GTCTTGATTCGCTTGACGCTGCTG", "sequence of UniProt Q92985 (whole entry, unmodified, looked up)": "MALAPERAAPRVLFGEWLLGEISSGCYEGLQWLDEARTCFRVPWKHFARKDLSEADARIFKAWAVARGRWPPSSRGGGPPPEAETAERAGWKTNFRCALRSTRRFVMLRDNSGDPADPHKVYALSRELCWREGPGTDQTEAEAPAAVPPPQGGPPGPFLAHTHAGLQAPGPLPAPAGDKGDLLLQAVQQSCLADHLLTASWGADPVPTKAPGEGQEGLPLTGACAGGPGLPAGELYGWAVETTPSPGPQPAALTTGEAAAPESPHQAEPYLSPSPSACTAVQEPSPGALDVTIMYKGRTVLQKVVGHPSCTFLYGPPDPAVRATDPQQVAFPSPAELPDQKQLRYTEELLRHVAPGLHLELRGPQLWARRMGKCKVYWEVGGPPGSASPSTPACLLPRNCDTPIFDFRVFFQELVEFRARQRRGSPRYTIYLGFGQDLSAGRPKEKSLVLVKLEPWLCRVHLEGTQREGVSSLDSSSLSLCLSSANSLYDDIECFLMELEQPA"}
{"Oligonucleotide": "AAGTGTTTGGTGTCTTTTGTGGTGCTA", "log fluorescence [z-score]": -0.452}
{"Oligonucleotide": "TTAGATTTCGGTTCCGATTAGTGCTAG", "log fluorescence [z-score]": 4.16}
{"Oligonucleotide": "GTAGGACTGGACTATCGGTTAGTGCTA", "log fluorescence [z-score]": -0.842}
{"Oligonucleotide": "TTAGGTTTCGGGACTGGGGTAGTGCTA", "log fluorescence [z-score]": 3.4}
{"Oligonucleotide": "TCAGATATGCGGTAAGGGACTGTGCTA", "log fluorescence [z-score]": -0.436}
{"Oligonucleotide": "AGCAGGGCTGATGCTCCCCTGTGCTAG", "log fluorescence [z-score]": -1.25}
{"Oligonucleotide": "GACGGACTGTACTATCGGGACGTGCTA", "log fluorescence [z-score]": -0.399}
{"Oligonucleotide": "TTAGAACTGGGTACTGGATTAGTGCTA", "log fluorescence [z-score]": -0.238}
{"data": "Block 2", "target": "Histone acetyltransferase KAT6A, both winged helices, GST fusion (KAT6A, Homo sapiens, UniProt Q92794, residues 1-181)", "method": "protein binding microarray", "molecule type": "double-stranded DNA, one strand shown", "sample": "in vitro", "tested at": "not given", "setting": "8-mer, flanks averaged, mean of 2 arrays, mostly near background", "baseline": "not given", "direction": "higher = stronger binding", "Construct (chain)": "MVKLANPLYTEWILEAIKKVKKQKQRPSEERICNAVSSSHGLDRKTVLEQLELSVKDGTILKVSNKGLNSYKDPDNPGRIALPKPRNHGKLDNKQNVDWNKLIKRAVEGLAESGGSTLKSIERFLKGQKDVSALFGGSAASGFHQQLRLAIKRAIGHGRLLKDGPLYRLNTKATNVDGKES"}
{"Oligonucleotide": "ACAGGTAG", "E-score": -0.165}
{"Oligonucleotide": "CACTTGAC", "E-score": -0.0287}
{"Oligonucleotide": "CCGTCACG", "E-score": 0.285}
{"Oligonucleotide": "AGGGAATC", "E-score": -0.0776}
{"Oligonucleotide": "TAGTCAGA", "E-score": -0.118}
{"data": "Block 3", "target": "Phosphate system positive regulatory protein PHO4, full length, GST-tagged (PHO4, Saccharomyces cerevisiae, UniProt P07270, residues 1-312)", "method": "competition protein-binding microarray", "molecule type": "double-stranded DNA, one strand shown", "sample": "in vitro", "tested at": "2 µM", "setting": "whole 60-bp probe, lowest competitor level", "added": "Cbf1 competitor, 0.05 µM", "direction": "higher = stronger binding", "all sequences stand within": "… GTCTTGATTCGCTTGACGCTGCTG", "Construct (chain)": "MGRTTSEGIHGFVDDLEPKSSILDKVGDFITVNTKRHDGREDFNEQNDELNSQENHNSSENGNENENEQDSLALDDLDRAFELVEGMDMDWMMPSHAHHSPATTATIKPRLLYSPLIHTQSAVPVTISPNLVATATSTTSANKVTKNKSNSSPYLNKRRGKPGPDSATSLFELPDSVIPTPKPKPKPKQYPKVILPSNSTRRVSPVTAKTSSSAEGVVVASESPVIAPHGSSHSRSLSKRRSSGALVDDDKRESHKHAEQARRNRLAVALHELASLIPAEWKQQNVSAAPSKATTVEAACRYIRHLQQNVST"}
{"Oligonucleotide": "CCAGTTTTGGACTGTCACACTGCTCCCATTGCTTGT", "fluorescence intensity": "4080 a.u."}
{"Oligonucleotide": "AGAGCGTCGTTTGCTTACGTGATGGTTAAGTGCCTT", "fluorescence intensity": "3780 a.u."}
{"Oligonucleotide": "AAAGCGGTAATTTGGTGCGTGGGTGCAGATATCTAT", "fluorescence intensity": "9340 a.u."}
{"Oligonucleotide": "CATACCCAACCTTAGCACGTGTTTTAAGATATTTGT", "fluorescence intensity": "21000 a.u."}
{"Oligonucleotide": "CATACCCAACCTTGCCCTGTGGGTGAAGATATTTGT", "fluorescence intensity": "4790 a.u."}
{"Oligonucleotide": "CGTCCTAGCGATTGACATGTGGGTGCCATGAGGAAG", "fluorescence intensity": "12200 a.u."}
{"data": "Mixed results"}
{"Substance": "PhoQ, residues 284 288 289 292 302 303 TASMAF", "target": "PhoP, residues 12 14 15 18 19 NQGLL (Escherichia coli, UniProt P23836)", "assay": "Sort-seq, measured: YFP reporter", "test system": "E. coli", "conditions": "PhoQ-PhoP variant library, added: 10 µM Mg2+", "how to read": "baseline: high Mg2+ state, higher = stronger signaling", "quantity": "fold induction", "value": 2.55}
{"note": "Excerpt of the above (block 2):"}
{"Oligonucleotide": "ACAGGTAG", "E-score": -0.165}
{"Oligonucleotide": "TAGTCAGA", "E-score": -0.118}
{"Oligonucleotide": "CCGTCACG", "E-score": 0.285}
